Experimental data of several laboratories.
Parts stem from different laboratories: compare values within a part only. Several values in a cell are separate wells, animals, samples, runs or records.
Sequence of UniProt P10721 (whole entry, unmodified, looked up): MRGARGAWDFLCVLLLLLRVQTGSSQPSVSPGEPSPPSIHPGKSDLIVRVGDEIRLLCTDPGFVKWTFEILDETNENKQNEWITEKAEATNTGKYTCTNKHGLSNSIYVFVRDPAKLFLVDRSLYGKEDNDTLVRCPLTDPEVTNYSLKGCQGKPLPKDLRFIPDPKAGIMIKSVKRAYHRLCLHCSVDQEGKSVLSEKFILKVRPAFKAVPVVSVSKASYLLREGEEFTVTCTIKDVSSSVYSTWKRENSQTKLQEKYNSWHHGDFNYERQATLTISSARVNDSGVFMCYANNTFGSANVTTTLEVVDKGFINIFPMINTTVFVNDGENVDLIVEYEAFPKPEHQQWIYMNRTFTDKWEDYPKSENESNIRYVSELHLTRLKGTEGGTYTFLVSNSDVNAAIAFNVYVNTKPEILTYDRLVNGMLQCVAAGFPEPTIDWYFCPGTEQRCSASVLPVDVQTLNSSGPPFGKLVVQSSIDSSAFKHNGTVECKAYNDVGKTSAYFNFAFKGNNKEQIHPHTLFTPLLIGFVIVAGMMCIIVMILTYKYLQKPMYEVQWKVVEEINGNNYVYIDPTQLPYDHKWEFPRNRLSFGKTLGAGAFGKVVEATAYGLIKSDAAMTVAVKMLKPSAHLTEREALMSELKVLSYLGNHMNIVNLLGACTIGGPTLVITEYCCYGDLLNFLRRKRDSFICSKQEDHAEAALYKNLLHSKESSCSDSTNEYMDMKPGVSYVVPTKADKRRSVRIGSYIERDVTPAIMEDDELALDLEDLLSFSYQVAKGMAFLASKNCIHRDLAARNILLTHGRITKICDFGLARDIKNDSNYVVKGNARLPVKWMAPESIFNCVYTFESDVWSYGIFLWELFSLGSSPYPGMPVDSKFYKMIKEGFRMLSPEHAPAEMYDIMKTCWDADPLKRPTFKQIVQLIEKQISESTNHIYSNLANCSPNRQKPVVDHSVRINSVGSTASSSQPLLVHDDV
Sequence of UniProt O43353 (whole entry, looked up): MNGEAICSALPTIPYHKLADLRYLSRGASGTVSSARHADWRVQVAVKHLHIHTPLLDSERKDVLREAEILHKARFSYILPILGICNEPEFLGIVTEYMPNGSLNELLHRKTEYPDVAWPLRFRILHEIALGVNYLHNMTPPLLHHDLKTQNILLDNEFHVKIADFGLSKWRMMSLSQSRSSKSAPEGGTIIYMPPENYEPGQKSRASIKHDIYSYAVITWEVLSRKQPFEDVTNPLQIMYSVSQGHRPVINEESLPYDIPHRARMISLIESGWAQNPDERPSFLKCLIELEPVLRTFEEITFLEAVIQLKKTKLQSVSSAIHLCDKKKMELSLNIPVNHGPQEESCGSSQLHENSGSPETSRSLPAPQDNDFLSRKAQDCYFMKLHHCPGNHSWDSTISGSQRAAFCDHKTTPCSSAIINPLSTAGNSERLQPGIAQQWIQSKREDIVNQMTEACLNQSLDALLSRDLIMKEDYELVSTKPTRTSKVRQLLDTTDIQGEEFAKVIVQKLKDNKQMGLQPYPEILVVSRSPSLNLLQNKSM
Sequence of UniProt Q00536 (whole entry, looked up): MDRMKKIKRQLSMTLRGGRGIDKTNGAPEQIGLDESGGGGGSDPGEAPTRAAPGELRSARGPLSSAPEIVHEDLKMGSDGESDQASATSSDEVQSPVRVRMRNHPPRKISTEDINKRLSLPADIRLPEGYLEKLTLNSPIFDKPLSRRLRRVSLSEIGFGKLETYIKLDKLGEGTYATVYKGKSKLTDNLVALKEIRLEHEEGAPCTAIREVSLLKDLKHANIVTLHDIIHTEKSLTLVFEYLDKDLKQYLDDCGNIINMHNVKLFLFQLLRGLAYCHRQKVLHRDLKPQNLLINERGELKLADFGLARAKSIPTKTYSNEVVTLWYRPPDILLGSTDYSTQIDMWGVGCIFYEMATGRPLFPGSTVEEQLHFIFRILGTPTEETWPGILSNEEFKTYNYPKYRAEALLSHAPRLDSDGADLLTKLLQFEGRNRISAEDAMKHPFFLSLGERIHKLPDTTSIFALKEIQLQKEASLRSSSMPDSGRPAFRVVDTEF
Sequence of UniProt P51956 (whole entry, looked up): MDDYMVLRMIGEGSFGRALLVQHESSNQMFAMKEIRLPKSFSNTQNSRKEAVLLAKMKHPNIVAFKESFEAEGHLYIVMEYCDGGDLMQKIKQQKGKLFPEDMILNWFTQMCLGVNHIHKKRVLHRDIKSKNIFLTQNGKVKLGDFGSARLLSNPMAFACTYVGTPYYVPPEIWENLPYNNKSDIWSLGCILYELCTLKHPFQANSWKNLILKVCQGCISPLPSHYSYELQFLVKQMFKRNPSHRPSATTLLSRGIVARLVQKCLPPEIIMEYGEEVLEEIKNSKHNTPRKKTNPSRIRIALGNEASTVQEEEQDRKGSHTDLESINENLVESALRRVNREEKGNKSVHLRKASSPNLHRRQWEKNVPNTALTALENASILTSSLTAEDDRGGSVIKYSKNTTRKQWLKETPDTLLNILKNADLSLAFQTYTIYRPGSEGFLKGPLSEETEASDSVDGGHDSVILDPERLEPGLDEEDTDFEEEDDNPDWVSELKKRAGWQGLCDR

Block 1 — tested at: 5 µM; measurement: remaining activity
Structure (SMILES): O=C(Nc1cnn(-c2csc(C(=O)NC3COC3)c2)c1)Nc1c(F)cccc1Cl
Serine/threonine-protein kinase Nek3 (NEK3, Homo sapiens, UniProt P51956); enzyme activity; baseline: untreated control: 82.3%
Rho-associated protein kinase 1 (ROCK1, Homo sapiens, UniProt Q13464); enzyme activity; baseline: untreated control: 75.7%
SRSF protein kinase 3 (SRPK3, Homo sapiens, UniProt Q9UPE1); kinase activity, kinase panel profiling: 89.8%
Tyrosine-protein kinase Lyn, isoform B (LYN, Homo sapiens, UniProt P07948); kinase activity, kinase panel profiling: 82.8%
Ephrin type-A receptor 7 (EPHA7, Homo sapiens, UniProt Q15375); enzyme activity; baseline: untreated control: 89.8%
Phosphorylase b kinase gamma catalytic chain, skeletal muscle/heart isoform (PHKG1, Homo sapiens, UniProt Q16816); enzyme activity; baseline: untreated control: 90.5%
Dual specificity tyrosine-phosphorylation-regulated kinase 1A (DYRK1A, Homo sapiens, UniProt Q13627); enzyme activity; baseline: untreated control: 74.4%
Serine/threonine-protein kinase haspin (HASPIN, Homo sapiens, UniProt Q8TF76); enzyme activity; baseline: untreated control: 108%
Protein kinase C gamma type (PRKCG, Homo sapiens, UniProt P05129); enzyme activity; baseline: untreated control: 95.7%
MAP kinase-activated protein kinase 3 (MAPKAPK3, Homo sapiens, UniProt Q16644); enzyme activity; baseline: untreated control: 92.6%
Serine/threonine-protein kinase 4 (STK4, Homo sapiens, UniProt Q13043); enzyme activity; baseline: untreated control: 92.8%

Block 2 — read-out: enzyme activity; mode: inhibitor; tested at: 77 µM; baseline: untreated; measurement: remaining activity
Target: DNA polymerase theta, ATPase domain (POLQ, Homo sapiens, UniProt O75417)
Sequence of UniProt O75417 (whole entry, unmodified, looked up): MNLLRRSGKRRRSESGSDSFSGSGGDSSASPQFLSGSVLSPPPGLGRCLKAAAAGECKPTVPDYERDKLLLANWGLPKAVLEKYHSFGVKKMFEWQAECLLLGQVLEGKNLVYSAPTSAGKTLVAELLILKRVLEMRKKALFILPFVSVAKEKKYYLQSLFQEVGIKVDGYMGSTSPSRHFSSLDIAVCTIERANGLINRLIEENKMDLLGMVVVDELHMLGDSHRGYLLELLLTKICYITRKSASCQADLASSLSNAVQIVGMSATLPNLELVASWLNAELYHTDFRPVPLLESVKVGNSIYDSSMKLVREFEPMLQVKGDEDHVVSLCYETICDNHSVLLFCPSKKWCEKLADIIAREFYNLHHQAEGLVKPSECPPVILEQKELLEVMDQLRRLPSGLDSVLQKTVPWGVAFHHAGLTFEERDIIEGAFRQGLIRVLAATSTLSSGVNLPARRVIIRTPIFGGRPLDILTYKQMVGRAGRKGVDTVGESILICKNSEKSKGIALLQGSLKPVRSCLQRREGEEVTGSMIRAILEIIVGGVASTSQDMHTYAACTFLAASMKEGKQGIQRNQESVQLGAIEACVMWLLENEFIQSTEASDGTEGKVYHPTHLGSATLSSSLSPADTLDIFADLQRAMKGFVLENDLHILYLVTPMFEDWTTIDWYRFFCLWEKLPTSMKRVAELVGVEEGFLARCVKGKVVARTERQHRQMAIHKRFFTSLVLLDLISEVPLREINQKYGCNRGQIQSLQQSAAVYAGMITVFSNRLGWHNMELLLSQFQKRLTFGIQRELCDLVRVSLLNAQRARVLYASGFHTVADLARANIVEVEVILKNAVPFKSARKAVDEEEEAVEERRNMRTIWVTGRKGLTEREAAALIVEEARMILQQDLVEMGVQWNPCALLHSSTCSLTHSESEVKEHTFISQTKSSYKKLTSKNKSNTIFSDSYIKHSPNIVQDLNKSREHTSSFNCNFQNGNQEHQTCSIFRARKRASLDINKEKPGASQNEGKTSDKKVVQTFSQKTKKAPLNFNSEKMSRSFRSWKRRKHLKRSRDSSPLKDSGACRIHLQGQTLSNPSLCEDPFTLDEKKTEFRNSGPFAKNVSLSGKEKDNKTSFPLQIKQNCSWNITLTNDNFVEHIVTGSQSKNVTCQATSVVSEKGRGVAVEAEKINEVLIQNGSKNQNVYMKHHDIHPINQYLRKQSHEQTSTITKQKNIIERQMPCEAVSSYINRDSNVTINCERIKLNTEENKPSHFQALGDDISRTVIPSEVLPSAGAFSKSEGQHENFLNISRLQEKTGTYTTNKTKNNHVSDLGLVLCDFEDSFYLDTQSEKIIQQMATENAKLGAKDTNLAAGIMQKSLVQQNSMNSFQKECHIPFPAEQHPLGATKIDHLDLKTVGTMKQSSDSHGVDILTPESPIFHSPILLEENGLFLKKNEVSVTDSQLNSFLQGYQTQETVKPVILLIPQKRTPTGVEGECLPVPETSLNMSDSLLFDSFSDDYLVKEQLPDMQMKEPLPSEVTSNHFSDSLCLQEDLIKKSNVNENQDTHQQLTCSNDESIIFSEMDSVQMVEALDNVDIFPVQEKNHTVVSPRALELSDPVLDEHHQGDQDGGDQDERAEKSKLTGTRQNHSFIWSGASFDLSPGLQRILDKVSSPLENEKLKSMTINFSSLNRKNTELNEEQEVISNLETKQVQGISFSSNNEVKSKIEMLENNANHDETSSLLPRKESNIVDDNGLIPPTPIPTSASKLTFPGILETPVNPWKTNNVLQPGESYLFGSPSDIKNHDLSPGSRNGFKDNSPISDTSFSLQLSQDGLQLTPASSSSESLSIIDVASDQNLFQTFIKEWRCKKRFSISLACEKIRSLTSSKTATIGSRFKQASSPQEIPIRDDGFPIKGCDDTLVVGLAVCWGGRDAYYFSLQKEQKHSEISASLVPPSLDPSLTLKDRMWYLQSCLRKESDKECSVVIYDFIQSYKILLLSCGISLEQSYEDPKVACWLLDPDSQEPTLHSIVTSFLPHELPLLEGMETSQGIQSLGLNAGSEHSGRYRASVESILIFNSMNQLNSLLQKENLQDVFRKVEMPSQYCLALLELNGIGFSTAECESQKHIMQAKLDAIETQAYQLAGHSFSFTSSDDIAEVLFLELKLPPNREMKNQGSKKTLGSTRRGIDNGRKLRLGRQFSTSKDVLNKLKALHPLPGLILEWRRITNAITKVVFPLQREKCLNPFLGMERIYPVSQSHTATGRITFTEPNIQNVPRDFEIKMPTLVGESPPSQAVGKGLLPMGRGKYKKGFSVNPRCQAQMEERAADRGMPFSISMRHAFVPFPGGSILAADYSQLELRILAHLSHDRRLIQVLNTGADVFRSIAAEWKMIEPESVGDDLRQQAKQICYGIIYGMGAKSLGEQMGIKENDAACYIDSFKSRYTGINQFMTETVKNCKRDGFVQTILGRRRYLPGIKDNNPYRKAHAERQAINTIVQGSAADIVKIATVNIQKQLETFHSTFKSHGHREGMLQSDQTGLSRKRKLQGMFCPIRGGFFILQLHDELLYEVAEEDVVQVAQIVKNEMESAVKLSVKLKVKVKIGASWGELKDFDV
CCCn1c(=O)[nH]c(=O)c2nc[nH]c21: 98.2%
CCc1ccc(/C=C2/SC(=S)NC2=O)cc1: 60.8%
Cc1cc(C(=O)Nc2cc(Nc3ccc4c(/C=C/c5ccccn5)n[nH]c4c3)ccc2F)n(C)n1: 109% and 116% and 113%
O=C1c2ccccc2-c2nc3nnnn3nc21: 62.7%
NCCCNCCSP(=O)(O)O: 103%
C[C@]12CCC3=C4CCC(=O)C=C4CC[C@H]3[C@@H]1CC[C@@]2(O)CC#N: 92.9%
O=C(O)c1cccnc1C(=O)O: 103%
Cc1cc2c(F)c(Oc3ncnn4cc(OC[C@@H](C)OC(=O)[C@H](C)N)c(C)c34)ccc2[nH]1: 99%
Clc1ccc(C(Cn2ccnc2)OCc2c(Cl)cccc2Cl)c(Cl)c1 (stereo not drawn): 102%

Block 3 — cell line: mouse MPNST tumor cells; method: high-content nuclear imaging; refers to: cell number; tested at: 10 µM; time: 12 h; notes: mean of 2 replicates; baseline: plate mean; reading: higher = more cells; measurement: nuclei count
COC(=O)C1=C(C#N)NC(C)=C(C(=O)OC(C)C)C1c1cccc([N+](=O)[O-])c1 (stereo not drawn): -0.299 z-score
Cn1c(=O)c2c(ncn2CC(O)CO)n(C)c1=O (stereo not drawn): -0.398 z-score
N=C(N)NCCN1CCCCCCC1: 0.918 z-score
CC(C)NC(=O)c1ccc(C#Cc2ccncc2)cn1: -0.194 z-score
Clc1cccc(Cl)c1NC1=NCCN1: 2.15 z-score
Cc1oc2ccccc2c1CNC(=O)NCc1cccs1: 0.12 z-score
Nc1nc(=S)c2ncn([C@@H]3O[C@H](CO)[C@@H](O)[C@H]3O)c2[nH]1: -2.52 z-score
CC(C)(Cc1ccccc1)NCC(O)c1ccc(O)c(NS(C)(=O)=O)c1 (stereo not drawn): 2.3 z-score
CCN(CC)CCOCCOC(=O)C1(c2ccccc2)CCCC1: 0.645 z-score
O=c1oc2c(C3OCCCO3)c(O)ccc2c2c1CNCC2: 1.52 z-score
O=C1NC(=O)c2c1c(-c1ccccc1)cc1[nH]c3ccc(O)cc3c21: -2.45 z-score

Block 4 — read-out: cell-free assay; method: competition with immobilised ligand; tested at: 1 µM; measurement: remaining binding
SMILES: CCCCN(CCCC)C(=O)CN1C[C@H](c2cc(OC)c3c(c2)OCO3)[C@@H](C(=O)O)[C@@H]1CC(C)(C)CCC
Mast/stem cell growth factor receptor Kit (KIT, Homo sapiens, UniProt P10721, T670I/V559D): 100%
Proto-oncogene tyrosine-protein kinase receptor Ret (RET, Homo sapiens, UniProt P07949, V804L): 100%
Tyrosine-protein kinase Srms (SRMS, Homo sapiens, UniProt Q9H3Y6): 69.6%
Tyrosine-protein kinase ABL1, non-phosphorylated (ABL1, Homo sapiens, UniProt P00519, Q252H): 100%
Insulin receptor-related protein (INSRR, Homo sapiens, UniProt P14616): 100%
Receptor-interacting serine/threonine-protein kinase 2 (RIPK2, Homo sapiens, UniProt O43353): 100%
cAMP-dependent protein kinase catalytic subunit beta (PRKACB, Homo sapiens, UniProt P22694): 100%
Receptor tyrosine-protein kinase erbB-2 (ERBB2, Homo sapiens, UniProt P04626): 95.6%
Mitogen-activated protein kinase kinase kinase 10 (MAP3K10, Homo sapiens, UniProt Q02779): 97%
Death-associated protein kinase 2 (DAPK2, Homo sapiens, UniProt Q9UIK4): 100%
Serine/threonine-protein kinase 17A (STK17A, Homo sapiens, UniProt Q9UEE5): 100%
Mitogen-activated protein kinase 10 (MAPK10, Homo sapiens, UniProt P53779): 91.1%
Mitogen-activated protein kinase kinase kinase 1 (MAP3K1, Homo sapiens, UniProt Q13233): 100%
Cyclin-dependent kinase 16 (CDK16, Homo sapiens, UniProt Q00536): 74.8%
Uncharacterized serine/threonine-protein kinase SBK3 (SBK3, Homo sapiens, UniProt P0C264): 100%
Tyrosine-protein kinase CSK (CSK, Homo sapiens, UniProt P41240): 100%
Microtubule-associated serine/threonine-protein kinase 1 (MAST1, Homo sapiens, UniProt Q9Y2H9): 100%
Interleukin-1 receptor-associated kinase 4 (IRAK4, Homo sapiens, UniProt Q9NWZ3): 67.5%
Serine/threonine-protein kinase PAK 3 (PAK3, Homo sapiens, UniProt O75914): 100%
Ephrin type-A receptor 3 (EPHA3, Homo sapiens, UniProt P29320): 100%
MAP/microtubule affinity-regulating kinase 3 (MARK3, Homo sapiens, UniProt P27448): 98.7%
Epidermal growth factor receptor (EGFR, Homo sapiens, UniProt P00533, G719S): 100%
Mast/stem cell growth factor receptor Kit (KIT, Homo sapiens, UniProt P10721, L576P): 100%

A few entries again (block 4):
Mitogen-activated protein kinase kinase kinase 1 (MAP3K1, Homo sapiens, UniProt Q13233): 100%
Tyrosine-protein kinase CSK (CSK, Homo sapiens, UniProt P41240): 100%
Ephrin type-A receptor 3 (EPHA3, Homo sapiens, UniProt P29320): 100%
Insulin receptor-related protein (INSRR, Homo sapiens, UniProt P14616): 100%
